Measurements gathered from unrelated publications.
Every numbered part comes from another study and shows a few of its results, in no order.
UniProt Q99558, sequence (whole entry, looked up): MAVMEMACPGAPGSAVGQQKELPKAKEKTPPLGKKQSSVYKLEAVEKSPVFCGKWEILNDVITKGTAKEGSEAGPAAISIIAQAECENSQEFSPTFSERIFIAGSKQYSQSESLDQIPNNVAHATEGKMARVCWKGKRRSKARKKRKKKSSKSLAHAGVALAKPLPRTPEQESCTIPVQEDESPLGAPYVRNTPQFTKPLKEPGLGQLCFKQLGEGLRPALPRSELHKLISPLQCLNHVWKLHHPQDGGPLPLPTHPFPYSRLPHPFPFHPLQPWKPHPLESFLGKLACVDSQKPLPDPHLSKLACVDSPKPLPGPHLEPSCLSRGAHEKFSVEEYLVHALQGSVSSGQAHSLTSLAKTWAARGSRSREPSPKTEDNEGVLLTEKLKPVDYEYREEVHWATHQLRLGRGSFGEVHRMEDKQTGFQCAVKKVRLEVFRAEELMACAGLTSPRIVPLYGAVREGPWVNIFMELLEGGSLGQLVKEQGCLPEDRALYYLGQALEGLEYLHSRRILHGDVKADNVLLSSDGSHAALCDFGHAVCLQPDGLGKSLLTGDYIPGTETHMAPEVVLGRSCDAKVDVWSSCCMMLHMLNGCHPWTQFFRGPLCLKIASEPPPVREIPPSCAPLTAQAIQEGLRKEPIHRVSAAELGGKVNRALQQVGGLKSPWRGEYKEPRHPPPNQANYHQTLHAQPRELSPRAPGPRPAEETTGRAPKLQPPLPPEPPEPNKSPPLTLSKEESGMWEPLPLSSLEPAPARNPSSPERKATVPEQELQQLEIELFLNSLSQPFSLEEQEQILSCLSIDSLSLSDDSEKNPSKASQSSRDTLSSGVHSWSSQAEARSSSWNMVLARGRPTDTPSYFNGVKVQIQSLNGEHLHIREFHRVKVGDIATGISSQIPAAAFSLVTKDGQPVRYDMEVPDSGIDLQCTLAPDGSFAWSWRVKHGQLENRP
UniProt Q15208, sequence (whole entry, looked up): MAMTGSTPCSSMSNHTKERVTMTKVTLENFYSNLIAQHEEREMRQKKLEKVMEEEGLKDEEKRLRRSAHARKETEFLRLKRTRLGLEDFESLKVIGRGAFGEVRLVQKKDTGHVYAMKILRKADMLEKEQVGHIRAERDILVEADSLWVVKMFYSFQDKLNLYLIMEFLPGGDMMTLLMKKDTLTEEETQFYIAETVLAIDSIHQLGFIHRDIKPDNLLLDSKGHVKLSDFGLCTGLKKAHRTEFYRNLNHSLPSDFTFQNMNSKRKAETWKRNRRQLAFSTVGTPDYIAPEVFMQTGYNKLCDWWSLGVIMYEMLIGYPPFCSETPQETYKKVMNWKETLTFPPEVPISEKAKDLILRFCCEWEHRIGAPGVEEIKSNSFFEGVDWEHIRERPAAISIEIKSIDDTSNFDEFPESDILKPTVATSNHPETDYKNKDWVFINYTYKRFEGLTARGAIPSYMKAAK
UniProt Q6ZWH5, sequence (whole entry, looked up): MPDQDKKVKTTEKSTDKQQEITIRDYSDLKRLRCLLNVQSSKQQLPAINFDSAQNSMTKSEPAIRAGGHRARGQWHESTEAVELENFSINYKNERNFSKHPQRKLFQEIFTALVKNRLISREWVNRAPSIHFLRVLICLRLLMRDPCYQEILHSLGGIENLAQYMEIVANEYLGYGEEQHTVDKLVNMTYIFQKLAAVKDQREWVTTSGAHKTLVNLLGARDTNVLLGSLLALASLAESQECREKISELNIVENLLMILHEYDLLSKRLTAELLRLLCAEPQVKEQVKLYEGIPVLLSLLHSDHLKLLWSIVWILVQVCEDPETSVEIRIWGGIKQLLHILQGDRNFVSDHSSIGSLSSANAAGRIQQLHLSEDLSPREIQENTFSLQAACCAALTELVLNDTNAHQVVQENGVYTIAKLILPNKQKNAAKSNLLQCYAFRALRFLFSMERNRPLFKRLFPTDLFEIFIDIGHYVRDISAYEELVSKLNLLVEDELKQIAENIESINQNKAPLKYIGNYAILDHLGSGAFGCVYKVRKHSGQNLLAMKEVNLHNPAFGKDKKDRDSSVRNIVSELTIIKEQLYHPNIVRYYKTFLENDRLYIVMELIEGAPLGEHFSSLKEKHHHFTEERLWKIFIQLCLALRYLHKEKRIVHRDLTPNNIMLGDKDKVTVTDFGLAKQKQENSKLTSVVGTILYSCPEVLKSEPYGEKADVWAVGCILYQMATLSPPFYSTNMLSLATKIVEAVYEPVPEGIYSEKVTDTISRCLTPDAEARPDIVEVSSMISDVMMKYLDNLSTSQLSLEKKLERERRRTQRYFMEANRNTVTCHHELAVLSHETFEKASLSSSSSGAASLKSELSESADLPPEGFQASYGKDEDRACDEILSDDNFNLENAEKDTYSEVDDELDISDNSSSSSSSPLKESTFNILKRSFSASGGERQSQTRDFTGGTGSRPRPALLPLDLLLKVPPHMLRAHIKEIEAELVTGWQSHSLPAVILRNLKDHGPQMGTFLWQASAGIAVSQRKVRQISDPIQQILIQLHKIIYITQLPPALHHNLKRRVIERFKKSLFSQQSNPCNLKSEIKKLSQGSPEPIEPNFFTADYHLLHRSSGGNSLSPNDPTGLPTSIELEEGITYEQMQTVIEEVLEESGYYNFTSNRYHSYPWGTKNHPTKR
UniProt P22455, sequence (whole entry, looked up): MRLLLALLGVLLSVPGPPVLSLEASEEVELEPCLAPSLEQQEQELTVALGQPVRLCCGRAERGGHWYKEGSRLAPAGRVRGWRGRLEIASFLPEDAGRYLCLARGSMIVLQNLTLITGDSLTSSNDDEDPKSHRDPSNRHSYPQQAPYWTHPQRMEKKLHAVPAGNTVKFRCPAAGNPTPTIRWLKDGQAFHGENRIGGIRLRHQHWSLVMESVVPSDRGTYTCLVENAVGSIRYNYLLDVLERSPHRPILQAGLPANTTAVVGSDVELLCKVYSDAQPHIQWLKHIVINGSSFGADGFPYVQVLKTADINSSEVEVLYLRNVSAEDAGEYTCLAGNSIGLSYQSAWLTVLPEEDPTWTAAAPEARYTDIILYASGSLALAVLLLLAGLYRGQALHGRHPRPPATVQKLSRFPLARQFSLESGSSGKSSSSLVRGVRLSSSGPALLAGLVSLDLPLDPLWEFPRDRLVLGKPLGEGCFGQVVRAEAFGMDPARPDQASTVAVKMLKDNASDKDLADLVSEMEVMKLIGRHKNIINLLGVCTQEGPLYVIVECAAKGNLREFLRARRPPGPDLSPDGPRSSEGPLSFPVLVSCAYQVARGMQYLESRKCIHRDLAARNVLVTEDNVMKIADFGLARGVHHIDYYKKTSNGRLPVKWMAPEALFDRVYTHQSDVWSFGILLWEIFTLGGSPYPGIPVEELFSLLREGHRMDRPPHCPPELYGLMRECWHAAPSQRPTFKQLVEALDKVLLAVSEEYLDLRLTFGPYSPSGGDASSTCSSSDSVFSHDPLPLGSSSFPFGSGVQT
UniProt O76039, sequence (whole entry, looked up): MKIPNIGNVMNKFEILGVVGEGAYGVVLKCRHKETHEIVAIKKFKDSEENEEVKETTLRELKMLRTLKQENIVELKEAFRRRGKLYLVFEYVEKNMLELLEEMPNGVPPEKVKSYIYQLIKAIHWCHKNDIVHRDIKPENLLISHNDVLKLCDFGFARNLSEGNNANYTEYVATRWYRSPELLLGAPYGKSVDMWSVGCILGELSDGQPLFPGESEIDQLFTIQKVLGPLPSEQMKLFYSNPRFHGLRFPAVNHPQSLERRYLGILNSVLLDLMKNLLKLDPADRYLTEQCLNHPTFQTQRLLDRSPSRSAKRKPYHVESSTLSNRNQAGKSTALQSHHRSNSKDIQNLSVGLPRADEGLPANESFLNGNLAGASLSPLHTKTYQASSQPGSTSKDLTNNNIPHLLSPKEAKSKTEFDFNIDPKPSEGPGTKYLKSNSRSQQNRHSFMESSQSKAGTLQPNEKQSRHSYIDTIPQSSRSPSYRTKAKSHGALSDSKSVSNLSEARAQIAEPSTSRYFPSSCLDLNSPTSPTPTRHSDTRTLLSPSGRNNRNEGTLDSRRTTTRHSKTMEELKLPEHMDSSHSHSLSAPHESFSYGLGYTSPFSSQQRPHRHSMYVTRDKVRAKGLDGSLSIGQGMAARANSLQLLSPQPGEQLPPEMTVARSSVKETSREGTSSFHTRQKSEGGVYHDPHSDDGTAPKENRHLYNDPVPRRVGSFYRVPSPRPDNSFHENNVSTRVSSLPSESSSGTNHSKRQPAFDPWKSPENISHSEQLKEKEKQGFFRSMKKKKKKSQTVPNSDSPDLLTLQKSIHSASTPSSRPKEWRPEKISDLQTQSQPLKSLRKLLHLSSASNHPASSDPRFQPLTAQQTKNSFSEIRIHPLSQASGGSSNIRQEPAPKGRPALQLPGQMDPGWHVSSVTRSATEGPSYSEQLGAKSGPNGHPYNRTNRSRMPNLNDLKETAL
UniProt Q8NG66, sequence (whole entry, looked up): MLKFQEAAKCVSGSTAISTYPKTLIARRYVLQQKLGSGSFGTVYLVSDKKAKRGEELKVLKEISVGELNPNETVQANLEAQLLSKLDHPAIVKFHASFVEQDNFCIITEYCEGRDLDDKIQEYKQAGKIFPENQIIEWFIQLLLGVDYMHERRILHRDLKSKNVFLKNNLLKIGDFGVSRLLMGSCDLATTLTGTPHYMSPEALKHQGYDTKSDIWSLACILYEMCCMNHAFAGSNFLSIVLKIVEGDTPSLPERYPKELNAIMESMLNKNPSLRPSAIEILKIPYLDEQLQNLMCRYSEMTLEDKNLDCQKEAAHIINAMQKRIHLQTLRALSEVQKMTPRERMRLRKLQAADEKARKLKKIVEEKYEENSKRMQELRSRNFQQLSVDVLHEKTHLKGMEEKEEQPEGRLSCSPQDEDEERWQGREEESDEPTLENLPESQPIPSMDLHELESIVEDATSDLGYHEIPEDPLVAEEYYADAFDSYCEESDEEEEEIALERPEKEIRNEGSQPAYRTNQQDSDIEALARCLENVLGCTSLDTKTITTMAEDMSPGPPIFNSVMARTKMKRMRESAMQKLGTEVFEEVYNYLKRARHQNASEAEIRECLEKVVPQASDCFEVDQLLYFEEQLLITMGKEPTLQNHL

Series 1
SMILES: C[C@H](NC(=O)c1cnc2n1[C@](C)(Cc1ccc(C#N)cc1)C(=O)N2c1cc(Cl)c(F)c(Cl)c1)C(=O)NC1(c2ccccn2)CC1
Read-out: cell-free assay
Method: competition with immobilised ligand
Concentration: 1 µM
target	remaining binding [%]
MAP3K14 (Homo sapiens, UniProt Q99558)	100
KIT (Homo sapiens, UniProt P10721, A829P)	100
TNK1 (Homo sapiens, UniProt Q13470)	88
NEK10 (Homo sapiens, UniProt Q6ZWH5)	100
STK38 (Homo sapiens, UniProt Q15208)	96
FGFR4 (Homo sapiens, UniProt P22455)	100
PIKFYVE (Homo sapiens, UniProt Q9Y2I7)	100
CDKL5 (Homo sapiens, UniProt O76039)	100
SNRK (Homo sapiens, UniProt Q9NRH2)	100
NEK11 (Homo sapiens, UniProt Q8NG66)	100

Series 2
Target: RNA binding protein fox-1 homolog 2, RRM domain, GST-SBP tag (RBFOX2, Homo sapiens, UniProt O43251-10, residues 100-194)
Method: RNA Bind-n-Seq
Form: RNA
Medium: in vitro
Concentration: 365 nM
Notes: natural RNA segment, single round, ends assumed
Reference: no-protein control
Reading: higher = stronger binding
Construct (chain): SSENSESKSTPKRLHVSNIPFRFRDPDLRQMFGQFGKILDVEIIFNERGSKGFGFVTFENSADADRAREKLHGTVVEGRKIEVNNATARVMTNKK
Strand	RBNS enrichment (R)
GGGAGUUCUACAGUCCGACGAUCAGUUCUGGAACAUCUGAAUACAACAGACCCCAACAGUACUUGCCGCUGUGUCCAGAUGUUGGAAUGGUUUGAGCAUCAUGGUCACAUUUGCAUUGUUUUUGAACUAUUGGUGGAAUUCUCGGGUGCCAA	3.39
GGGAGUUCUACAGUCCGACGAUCGUGCUAUUUUACAUCUGUUCGUUAAAGUAUUAAGUAAUUUAAUGACCCCAAGAGUACCAGAUUCUGUGAGUGUGGUUGUAUACGUAAGAACUGCCCUGUUUGGAGGUUAUUGGAAUUCUCGGGUGCCAA	0.57
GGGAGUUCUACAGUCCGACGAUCGAACAAAACAACCGAAACCAAACAAACAAAAAAAUACAAGCAUUCUGUGGUGGGUGGCAUAACAAUAAAACUUACUAAGUGGUUAUAGGAUAAACAAACAGUUAUUAGGUUGGAAUUCUCGGGUGCCAA	0.831
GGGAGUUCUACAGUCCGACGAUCUUAUAAUUCACUAAAAUAAAGCAUCUAUUAGUGUCUGAUUUAGGAAUGUAAAAUGAUUCUGUAUUAAUGUAAAUAAGAUUAUCUAUUGCAAAAAGAUAUUUCAAACCUAAUGGAAUUCUCGGGUGCCAA	13
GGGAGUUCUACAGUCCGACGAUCCCAGAAAGUGUUAUAUAUUUAUUUCUGUCGGAACAGUGUUAUGCUACAAGACUUCAUAAUGGUUUUGUGUGCUCUCGAGAGAGUACCUGCAGACUAGUUUUGGAUACAUUUGGAAUUCUCGGGUGCCAA	0.473
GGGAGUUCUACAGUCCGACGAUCUCCCAUCAGAACCCUGCCUGCCCACCUGCAACUCCCCCCCAACAAUGCCAUUCCCACUUGCCCCAGAGAAGCUACUCGGCCAAACCUAGCCAGGGUCUGUUCUUGUGGACUGGAAUUCUCGGGUGCCAA	1.76
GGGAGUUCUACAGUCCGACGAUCCUAGAUGGAGACAGAAUAACUGACUUGAACAUACAGUGUGCCUGUAAGUGUCCAGGCUCAGAGCUGGUGAAAACCCUUCUGUUGGGCGUGUGCAGGGUUAAACUCCUGAAUGGAAUUCUCGGGUGCCAA	0.271
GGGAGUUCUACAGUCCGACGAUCGCUUACCACUCUCCAGGGCCUCCUGGGGAGCCUGUCCUGUGUUCACUUUGUUUCAGGCUGGUCUGUGCCCCGUGAGCCACAUGGCCUAGGGUGAUGCCAGGUUGUCCCGUUGGAAUUCUCGGGUGCCAA	0.243

Series 3
Target: Max-binding protein MNT, bHLH-zipper, MAX partner unstated (MNT, Homo sapiens, UniProt Q99583, residues 220-300)
Method: protein-binding microarray
Form: double-stranded DNA, one strand shown
Medium: in vitro
Concentration: not given
Notes: k-mer, scored over probes, only values ≥0.25
Reading: higher = stronger binding
Residues (chain): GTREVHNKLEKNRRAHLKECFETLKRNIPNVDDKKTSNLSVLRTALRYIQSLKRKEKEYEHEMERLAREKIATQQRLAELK
Strand	E-score
GCCACCCC	0.301
CTGCATGC	0.35
GCACGCGC	0.441
GCACGCTA	0.372
ACACGTGA	0.494
GCGTGTAA	0.364
CATGTTGG	0.29
CACGCGAA	0.366

Series 4
Host: mouse
Medium: microsomes or S9
Concentration: 2 µM
Time: 0.5 h
SMILES	remaining compound [%]
c1ccc(Cn2c(CNc3nc4ccccc4n3CCN3CCOCC3)nc3ccccc32)cc1	0.0491
Cn1cnc2c(Nc3cnn(-c4ccc(Cl)cc4)c3)ncnc21	33.4
OCc1cc2nc(-c3ccc(OC4CCOC4)cc3)ccc2o1 (stereo not drawn)	31.4
O=C(Nc1cnccn1)c1cnc(-c2ncccn2)s1	> 100
